Experimental data from different studies.
A part holds a random share of what one study measured. Positions count from the first letter of the parent shown.

Study 1 — target: Sox, HMG box (Pigoraptor chileana); method: Spec-seq; molecule type: double-stranded DNA, one strand shown; sample: in vitro; tested at: not given; setting: whole probe, mean of replicates; relative to: not given; reading: lower = stronger binding; all sequences stand within: GAGTCGTCTCGTCAGCAC … CCGTAGAGCACTCAGGTC
Residues (chain): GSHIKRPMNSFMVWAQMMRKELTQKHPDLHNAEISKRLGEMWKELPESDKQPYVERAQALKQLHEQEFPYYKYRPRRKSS
Under “relative binding energy”, `TACTGTT` is recorded as -1.85 ln ratio.
For `GCCTGTT`, “relative binding energy” read -0.545 ln ratio.
Under “relative binding energy”, `CATCAAG` is recorded as -0.0146 ln ratio.
`CATCGTG`: “relative binding energy” 0.393 ln ratio.
Under “relative binding energy”, `ATCAGTT` is recorded as -0.0431 ln ratio.
Under “relative binding energy”, `CATTGGT` is recorded as 0.164 ln ratio.
For `CATTGGG`, “relative binding energy” read -0.0438 ln ratio.
`CATAAAA` — result for “relative binding energy”: -0.422 ln ratio.

Study 2 — method: universal PBM; molecule type: double-stranded DNA, one strand shown; sample: in vitro; tested at: not given; reading: higher = stronger binding
Target: Sal-like protein 4, full length isoform B (SALL4, Homo sapiens, UniProt Q9UJQ4-2, residues 1-616)
Setting: 8-mer, flanks averaged, mean of replicates
`CAGCGCGC` has an E-score of -0.333.
The E-score of `AGCCATCG` is reported as -0.165.
`AGACGGGC` gave an E-score of -0.269.
The E-score of `GCATGGAA` is reported as -0.065.
`AAACAGTT` has an E-score of 0.15.
`ATCACTGG` gave an E-score of -0.0114.
For `CGGCACTA`, the E-score was -0.153.
With `TCAAGTCA` the E-score was 0.103.

Other studies, line by line
P1: PafA, mature enzyme, eGFP fusion (Elizabethkingia meningoseptica, UniProt Q9KJX5); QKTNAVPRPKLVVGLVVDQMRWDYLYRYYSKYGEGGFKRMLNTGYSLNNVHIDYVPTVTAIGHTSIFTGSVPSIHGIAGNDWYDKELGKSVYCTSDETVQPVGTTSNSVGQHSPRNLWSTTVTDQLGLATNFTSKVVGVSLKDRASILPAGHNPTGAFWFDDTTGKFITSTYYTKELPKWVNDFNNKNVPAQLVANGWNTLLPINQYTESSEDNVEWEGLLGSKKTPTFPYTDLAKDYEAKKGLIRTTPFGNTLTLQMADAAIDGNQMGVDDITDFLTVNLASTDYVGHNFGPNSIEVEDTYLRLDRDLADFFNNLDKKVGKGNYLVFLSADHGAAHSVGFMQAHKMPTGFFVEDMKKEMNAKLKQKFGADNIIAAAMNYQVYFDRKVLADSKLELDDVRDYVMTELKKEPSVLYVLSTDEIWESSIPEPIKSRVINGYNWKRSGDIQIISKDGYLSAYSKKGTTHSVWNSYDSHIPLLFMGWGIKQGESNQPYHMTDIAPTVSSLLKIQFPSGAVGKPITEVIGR
P2: viral docking peptide; KGVKRKLFAEDSS; partner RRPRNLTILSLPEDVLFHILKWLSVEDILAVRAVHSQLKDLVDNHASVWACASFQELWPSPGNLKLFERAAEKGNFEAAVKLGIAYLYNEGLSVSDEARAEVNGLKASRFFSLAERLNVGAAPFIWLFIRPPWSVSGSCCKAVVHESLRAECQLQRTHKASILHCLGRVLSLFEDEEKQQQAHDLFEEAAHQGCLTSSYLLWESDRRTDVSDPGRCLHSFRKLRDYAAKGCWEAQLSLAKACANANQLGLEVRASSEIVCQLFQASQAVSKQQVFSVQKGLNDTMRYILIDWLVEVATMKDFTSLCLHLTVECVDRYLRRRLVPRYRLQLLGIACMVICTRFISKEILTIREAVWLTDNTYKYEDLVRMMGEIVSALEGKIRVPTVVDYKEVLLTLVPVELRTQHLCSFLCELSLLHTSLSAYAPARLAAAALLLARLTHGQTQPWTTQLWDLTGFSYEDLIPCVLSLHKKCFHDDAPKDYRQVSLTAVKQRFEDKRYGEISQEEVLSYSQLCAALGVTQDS
`P1 Q206G`: “oxyanion analog dissociation constant” 1.75 µM (tungstate, free oxyanion; microfluidic competitive inhibition; in vitro, cell-free expressed; not given, derived from inhibition constants, unchanged parent 2230 nM; lower = stronger binding).
`P2 S12I` — result for “normalised enrichment score”: 8.27 (CCNF, cyclin fold, Cln2 fusion (human); yeast growth competition, sequencing; yeast; strong parent motif; relative to: not given, higher = stronger binding).

Excerpt of the above (study 2):
`ATCACTGG` gave an E-score of -0.0114.
